{"data": "Published values from different studies", "note": "Compare with care: the assays were run in different laboratories. Several values in a cell are separate wells, animals, samples, runs or records. ± marks the error that the study gave."}
{"Substance": "CTIL", "target or system": "Protein farnesyltransferase (Rattus norvegicus, UniProt Q02293+Q04631)", "test": "peptide farnesylation, substrate", "system": "peptide", "setting": "added: C15-Alk 4 µM", "quantity": "kcat/KM", "value": "23000 M⁻¹ s⁻¹"}
{"Substance": "methyl-β-cyclodextrin", "target or system": "SLC6A9 (Homo sapiens, UniProt P48067)", "test": "transport activity, [3H]glycine uptake", "setting": "3.5 mg/mL, 1 min, added: glycine 150 µM", "how to read": "higher = more transport", "quantity": "glycine uptake rate", "value": "43.9 a.u. and 43.4 a.u. and 43.2 a.u. and 38.2 a.u. and 21.1 a.u."}
{"Substance": "colistin", "target or system": "Morganella morganii", "test": "broth microdilution", "system": "clinical isolate RKI 93/15", "quantity": "MIC", "value": "> 64 µg/mL"}
{"Substance": "QLMPFGSLLDY", "target or system": "HLA class I histocompatibility antigen, A alpha chain, allele A*02:01 (Homo sapiens, UniProt P04439)", "test": "conformational ELISA", "system": "peptide", "setting": "concentration not given", "how to read": "relative to: positive control peptide, direction not given", "quantity": "binding score", "value": "6%"}
{"Substance": "milbemycin oxime", "target or system": "CDR1 (Candida albicans, UniProt Q5ANA3)", "test": "binding, microscale thermophoresis", "setting": "10 µM", "quantity": "fraction bound", "value": "94.3%"}
{"Substance": "BzATP", "target or system": "P2X purinoceptor 7 (P2rx7, Rattus norvegicus, UniProt Q64663, Q143A)", "test": "ion current, agonist, two-electrode voltage clamp", "system": "Xenopus oocytes", "setting": "33 µM", "quantity": "normalized current", "value": "0.88 and 0.974 and 0.976"}
{"Substance": "QLIMQLMPF", "target or system": "HLA class I histocompatibility antigen, A alpha chain, allele A*24:02 (Homo sapiens, UniProt P04439)", "test": "conformational ELISA", "system": "peptide", "setting": "concentration not given", "how to read": "relative to: positive control peptide, direction not given", "quantity": "binding score", "value": "58.7%"}
{"Substance": "11-deoxycorticosterone", "target or system": "CYP11B2 (human)", "test": "substrate binding, stopped-flow global kinetic fitting", "system": "purified enzyme", "setting": "3-state induced fit model, added: 10-fold excess adrenodoxin", "quantity": "rate constant k-2", "value": "1.36 ± 0.139 s⁻¹"}
{"Substance": "LTSTVQLIMQ", "target or system": "HLA class I histocompatibility antigen, A alpha chain, allele A*01:01 (Homo sapiens, UniProt P04439)", "test": "conformational ELISA", "system": "peptide", "setting": "concentration not given", "how to read": "relative to: positive control peptide, direction not given", "quantity": "binding score", "value": "1.1%"}
{"Substance": "VMRLQSETSV", "target or system": "human SCRIB PDZ3-4 tandem (MBP fusion)", "test": "automated holdup", "system": "peptide, purified PDZ protein", "setting": "concentration not given, unit not given", "how to read": "relative to: biotin control resin, higher = stronger binding", "quantity": "binding intensity", "value": 0.661}
{"Substance": "6-carboxyfluorescein", "target or system": "SLCO2A1 (Homo sapiens, UniProt Q92959, C420F)", "test": "compound uptake, substrate", "system": "HEK293F expressing SLCO2A1 C420F", "setting": "50 µM", "how to read": "relative to: wild type", "quantity": "uptake", "value": "10.9% and 13.5% and 12.6%"}
{"Substance": "QGRWDHETIV", "target or system": "human SCRIB PDZ3-4 tandem (MBP fusion)", "test": "automated holdup", "system": "peptide, crude extract", "setting": "concentration not given, uncorrected, unit not given", "how to read": "relative to: biotin control resin, higher = stronger binding", "quantity": "binding intensity", "value": 0.582}
{"Substance": "Peginesatide", "target or system": "UT7/EPO", "test": "RT-qPCR, item: EGR2", "setting": "concentration not given, 90 min, normalized to HPRT1", "how to read": "relative to: vehicle", "quantity": "mRNA level", "value": "6.9 fold"}
{"note": "Excerpt of the above:"}
{"Substance": "colistin", "target or system": "Morganella morganii", "test": "broth microdilution", "system": "clinical isolate RKI 93/15", "quantity": "MIC", "value": "> 64 µg/mL"}
